Measured values pooled from the literature.
Each numbered part is a random draw from the data of one study; scales do not carry over between parts.
Chain of UniProt Q9NYL2 (whole entry, looked up): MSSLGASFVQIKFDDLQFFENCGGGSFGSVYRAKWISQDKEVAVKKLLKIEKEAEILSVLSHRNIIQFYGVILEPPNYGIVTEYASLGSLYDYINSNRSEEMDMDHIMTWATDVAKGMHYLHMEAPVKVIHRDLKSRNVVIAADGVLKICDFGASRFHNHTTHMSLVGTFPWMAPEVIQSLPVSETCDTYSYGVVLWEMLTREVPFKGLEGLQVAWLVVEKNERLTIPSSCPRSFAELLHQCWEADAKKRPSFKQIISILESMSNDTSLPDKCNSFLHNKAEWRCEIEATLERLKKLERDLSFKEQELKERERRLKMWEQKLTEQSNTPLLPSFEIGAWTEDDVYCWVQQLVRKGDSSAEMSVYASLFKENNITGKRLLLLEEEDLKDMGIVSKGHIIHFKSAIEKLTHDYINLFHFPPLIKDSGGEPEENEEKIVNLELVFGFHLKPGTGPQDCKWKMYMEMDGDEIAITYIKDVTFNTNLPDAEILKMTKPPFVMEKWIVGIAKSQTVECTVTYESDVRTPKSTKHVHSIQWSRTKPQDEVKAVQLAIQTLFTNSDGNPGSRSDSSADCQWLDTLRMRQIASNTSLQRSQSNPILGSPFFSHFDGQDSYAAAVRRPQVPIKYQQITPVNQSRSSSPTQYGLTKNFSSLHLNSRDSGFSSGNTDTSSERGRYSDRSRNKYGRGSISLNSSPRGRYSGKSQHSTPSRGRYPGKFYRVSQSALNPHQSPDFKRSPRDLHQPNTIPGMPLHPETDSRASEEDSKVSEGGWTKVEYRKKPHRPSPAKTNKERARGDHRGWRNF
Chain of UniProt Q13153 (whole entry, looked up): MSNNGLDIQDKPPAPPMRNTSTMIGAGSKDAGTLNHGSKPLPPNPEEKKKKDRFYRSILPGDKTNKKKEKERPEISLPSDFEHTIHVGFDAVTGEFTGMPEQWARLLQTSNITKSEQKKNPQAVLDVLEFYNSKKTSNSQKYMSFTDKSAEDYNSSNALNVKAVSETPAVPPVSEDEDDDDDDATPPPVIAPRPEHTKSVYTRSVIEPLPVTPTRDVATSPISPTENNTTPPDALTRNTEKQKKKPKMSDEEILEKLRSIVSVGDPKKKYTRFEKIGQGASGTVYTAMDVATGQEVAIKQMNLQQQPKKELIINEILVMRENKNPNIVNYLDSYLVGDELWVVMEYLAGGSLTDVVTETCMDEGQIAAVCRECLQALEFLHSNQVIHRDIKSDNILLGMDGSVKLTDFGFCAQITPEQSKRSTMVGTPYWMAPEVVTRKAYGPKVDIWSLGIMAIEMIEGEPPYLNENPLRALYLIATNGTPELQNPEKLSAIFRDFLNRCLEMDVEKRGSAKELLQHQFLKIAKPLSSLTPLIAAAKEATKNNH
Chain of UniProt Q12809 (whole entry, looked up): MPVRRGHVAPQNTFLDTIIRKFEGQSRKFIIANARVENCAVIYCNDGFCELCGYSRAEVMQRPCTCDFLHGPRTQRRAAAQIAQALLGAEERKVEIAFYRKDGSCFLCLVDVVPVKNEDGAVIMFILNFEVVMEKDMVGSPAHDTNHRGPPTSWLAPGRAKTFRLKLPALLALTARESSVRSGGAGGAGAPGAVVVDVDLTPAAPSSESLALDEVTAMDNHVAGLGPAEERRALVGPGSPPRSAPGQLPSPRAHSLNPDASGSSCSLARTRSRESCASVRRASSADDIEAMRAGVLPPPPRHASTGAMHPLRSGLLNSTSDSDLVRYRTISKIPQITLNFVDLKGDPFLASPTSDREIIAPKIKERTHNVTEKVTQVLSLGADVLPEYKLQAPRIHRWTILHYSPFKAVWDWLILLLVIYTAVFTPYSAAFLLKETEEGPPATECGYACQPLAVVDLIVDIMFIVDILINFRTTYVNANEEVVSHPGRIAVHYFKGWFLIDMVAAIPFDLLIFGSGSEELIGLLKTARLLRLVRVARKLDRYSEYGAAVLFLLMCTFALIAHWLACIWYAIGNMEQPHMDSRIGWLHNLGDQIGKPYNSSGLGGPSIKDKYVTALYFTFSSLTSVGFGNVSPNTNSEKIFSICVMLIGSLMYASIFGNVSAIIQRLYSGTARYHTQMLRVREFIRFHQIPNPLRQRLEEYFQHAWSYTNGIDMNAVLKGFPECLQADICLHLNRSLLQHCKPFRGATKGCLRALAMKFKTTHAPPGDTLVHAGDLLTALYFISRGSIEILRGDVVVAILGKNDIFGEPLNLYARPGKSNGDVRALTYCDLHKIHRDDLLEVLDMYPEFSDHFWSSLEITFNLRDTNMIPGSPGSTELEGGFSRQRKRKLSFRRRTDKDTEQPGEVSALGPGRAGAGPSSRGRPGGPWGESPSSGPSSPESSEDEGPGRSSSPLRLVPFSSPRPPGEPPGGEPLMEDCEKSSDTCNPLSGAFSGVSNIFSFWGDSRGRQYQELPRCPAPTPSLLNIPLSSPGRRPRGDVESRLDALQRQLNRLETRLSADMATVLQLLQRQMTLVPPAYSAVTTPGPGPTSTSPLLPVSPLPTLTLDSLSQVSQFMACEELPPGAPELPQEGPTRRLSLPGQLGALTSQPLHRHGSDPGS
Chain of UniProt Q8N5S9 (whole entry, looked up): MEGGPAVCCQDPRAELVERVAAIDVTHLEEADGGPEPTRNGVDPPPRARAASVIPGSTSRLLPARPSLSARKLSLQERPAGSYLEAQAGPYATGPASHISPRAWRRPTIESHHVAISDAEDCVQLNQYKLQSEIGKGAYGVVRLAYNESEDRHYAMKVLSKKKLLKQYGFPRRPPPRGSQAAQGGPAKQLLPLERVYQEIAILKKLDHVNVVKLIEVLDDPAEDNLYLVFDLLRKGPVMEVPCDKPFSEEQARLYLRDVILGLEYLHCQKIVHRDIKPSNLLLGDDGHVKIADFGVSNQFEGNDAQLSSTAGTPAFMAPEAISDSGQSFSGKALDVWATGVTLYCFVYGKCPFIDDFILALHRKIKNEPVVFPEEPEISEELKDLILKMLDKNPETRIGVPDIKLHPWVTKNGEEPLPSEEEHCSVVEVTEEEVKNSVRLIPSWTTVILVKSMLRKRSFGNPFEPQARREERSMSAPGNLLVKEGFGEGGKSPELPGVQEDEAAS
Chain of UniProt Q9HBY8 (whole entry, looked up): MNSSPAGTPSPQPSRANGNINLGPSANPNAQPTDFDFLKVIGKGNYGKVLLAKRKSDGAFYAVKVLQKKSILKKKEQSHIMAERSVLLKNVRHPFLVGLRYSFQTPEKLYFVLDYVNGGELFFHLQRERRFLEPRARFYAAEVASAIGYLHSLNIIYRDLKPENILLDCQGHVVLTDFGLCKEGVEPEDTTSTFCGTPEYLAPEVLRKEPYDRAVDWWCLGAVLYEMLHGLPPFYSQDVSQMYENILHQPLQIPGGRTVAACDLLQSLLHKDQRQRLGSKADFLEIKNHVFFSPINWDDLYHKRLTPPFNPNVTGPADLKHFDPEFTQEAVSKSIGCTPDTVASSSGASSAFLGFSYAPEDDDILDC
Chain of UniProt P49759 (whole entry, looked up): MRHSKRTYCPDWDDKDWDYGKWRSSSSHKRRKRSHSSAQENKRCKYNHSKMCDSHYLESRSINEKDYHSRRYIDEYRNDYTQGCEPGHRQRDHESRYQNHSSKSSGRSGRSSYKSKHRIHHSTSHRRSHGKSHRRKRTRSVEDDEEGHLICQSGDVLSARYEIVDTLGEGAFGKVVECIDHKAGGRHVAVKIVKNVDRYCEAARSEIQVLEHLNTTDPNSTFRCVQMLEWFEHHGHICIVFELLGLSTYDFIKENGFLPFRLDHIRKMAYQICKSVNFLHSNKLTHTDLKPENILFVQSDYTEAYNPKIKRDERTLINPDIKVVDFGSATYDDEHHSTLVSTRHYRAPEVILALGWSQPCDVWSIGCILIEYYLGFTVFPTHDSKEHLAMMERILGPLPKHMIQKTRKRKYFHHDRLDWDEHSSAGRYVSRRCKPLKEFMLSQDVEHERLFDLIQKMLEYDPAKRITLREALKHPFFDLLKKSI
Chain of UniProt Q04759 (whole entry, looked up): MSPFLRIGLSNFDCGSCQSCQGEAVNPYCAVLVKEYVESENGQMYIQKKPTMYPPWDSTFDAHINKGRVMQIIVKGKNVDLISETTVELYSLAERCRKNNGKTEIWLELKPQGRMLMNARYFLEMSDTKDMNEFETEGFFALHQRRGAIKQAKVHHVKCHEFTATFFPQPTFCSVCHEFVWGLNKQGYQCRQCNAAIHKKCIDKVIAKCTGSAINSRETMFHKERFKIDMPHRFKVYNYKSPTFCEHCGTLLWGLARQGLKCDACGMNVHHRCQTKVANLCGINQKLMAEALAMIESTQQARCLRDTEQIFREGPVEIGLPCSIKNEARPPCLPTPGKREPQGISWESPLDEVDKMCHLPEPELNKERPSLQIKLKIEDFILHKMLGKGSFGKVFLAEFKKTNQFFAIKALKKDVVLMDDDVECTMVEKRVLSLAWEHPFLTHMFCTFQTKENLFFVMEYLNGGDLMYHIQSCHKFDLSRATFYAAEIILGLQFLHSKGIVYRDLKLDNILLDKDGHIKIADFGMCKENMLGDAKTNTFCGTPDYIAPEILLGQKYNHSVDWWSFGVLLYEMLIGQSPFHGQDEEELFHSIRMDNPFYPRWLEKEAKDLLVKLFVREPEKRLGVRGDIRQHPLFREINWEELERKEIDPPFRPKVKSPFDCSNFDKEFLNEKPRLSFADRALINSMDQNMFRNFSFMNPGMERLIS

Block 1 — effect on: binding; technique: radioligand binding; tested at: 10 µM
Target: Alpha-2C adrenergic receptor (ADRA2C, Homo sapiens, UniProt P18825)
Chain of UniProt P18825 (whole entry, looked up): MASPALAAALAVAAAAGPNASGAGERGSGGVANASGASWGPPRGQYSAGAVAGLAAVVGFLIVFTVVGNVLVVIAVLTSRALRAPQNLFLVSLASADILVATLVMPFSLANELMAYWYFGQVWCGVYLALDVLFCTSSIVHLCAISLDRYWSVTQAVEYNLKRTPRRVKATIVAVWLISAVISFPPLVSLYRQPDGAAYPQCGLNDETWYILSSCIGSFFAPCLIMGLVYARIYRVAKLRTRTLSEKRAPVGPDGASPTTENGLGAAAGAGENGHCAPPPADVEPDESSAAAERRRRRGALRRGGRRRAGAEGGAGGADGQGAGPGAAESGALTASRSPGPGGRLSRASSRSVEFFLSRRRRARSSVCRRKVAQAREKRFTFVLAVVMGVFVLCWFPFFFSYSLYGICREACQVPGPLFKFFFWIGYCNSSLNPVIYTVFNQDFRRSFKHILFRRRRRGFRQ
The inhibition of CC(=O)Nc1nc(CN2CCC[C@H](Cc3cc(C)nc(C)c3)C2)cs1 is reported as 36.5%.
The inhibition of Cc1c(NC(=O)c2cc(C(N)=O)nc3cc(F)ccc23)c(C(F)(F)F)nn1Cc1ccc(C(C)(C)C)cc1 is reported as 2.11%.
For O=C(NC[C@@H]1[C@H]2CN(C(=O)OCc3cc(C(F)(F)F)cc(C(F)(F)F)c3)C[C@@H]12)c1ccc2[nH]nnc2c1, the inhibition was 19%.
The inhibition of CCCOc1ccc([C@H]2[C@H](C(=O)O)[C@@H](c3ccc4c(c3)OCO4)CN2CC(=O)Nc2c(CC)cccc2CC)cc1 is reported as 0.5%.
Cc1cc(C)c(-n2ccn3nc(-c4cccnc4)cc23)cc1NC(=O)c1cc(C#N)cc(S(F)(F)(F)(F)F)c1 has an inhibition of -7.91%.
With CN1C(=O)[C@@H](N2CCc3cn(Cc4ccccc4)nc3C2=O)COc2ccccc21 the inhibition was 34.7%.
CN([C@@H]1CCc2c(CC(=O)O)c3cc(S(C)(=O)=O)ccc3n2C1)S(=O)(=O)c1ccc(F)cc1 has an inhibition of -13.5%.
For CC(C)CC(=O)N1CCc2nc(-c3ccc(Br)cc3)nc(N(C)Cc3ccccc3)c2C1, the inhibition was 48%.
With Cc1nc(C2CCN(C(=O)c3ccc(OC(F)(F)F)cc3N)CC2)c2ncc(N3CCN(C)CC3)cc2n1 the inhibition was -6.01%.
For CC(=O)Nc1c(F)cc(C(=O)N[C@H]2CC[C@H](O)CC2)cc1O[C@@H](C)c1ccccc1, the inhibition was -0.86%.

Block 2 — SMILES: COc1cccc(-c2cc(=O)c3ccccc3o2)c1N; effect on: enzyme activity; action: inhibitor; tested at: 0.5 µM; baseline: control
It gave 98.8% for remaining activity (CAMKK1 (Homo sapiens, UniProt Q8N5S9)).
It gave 95.3% for remaining activity (Cyclin-dependent kinase 2, with cyclin E (CDK2, Homo sapiens, UniProt P24941)).
PRKCQ (Homo sapiens, UniProt Q04759) — remaining activity: 103%.
For MAP3K20 (Homo sapiens, UniProt Q9NYL2): remaining activity read 103%.
For PAK1 (Homo sapiens, UniProt Q13153): remaining activity read 97.5%.
It gave 95.9% for remaining activity (SGK2 (Homo sapiens, UniProt Q9HBY8)).
The remaining activity was 97.7% (CLK1 (Homo sapiens, UniProt P49759)).

Block 3 — species: human; matrix: microsomes or S9; tested at: 2 µM; time: 0.5 h
For CCC1=NOC(c2nc3sc(CC)cc3c(=O)[nH]2)C1 (centres unmarked), the remaining compound was 48.8%.
The remaining compound of CCOc1cc2c(cc1C1CC(=O)NCc3nc4sccn4c31)CCC2 (centres unmarked) is reported as 13.4%.
For O=C(O)c1ccc(CN(c2ccccn2)S(=O)(=O)c2ccccc2)cc1, the remaining compound was 96.5%.
The remaining compound of CCOC1CC(N(C)C(=O)COCc2ocnc2C(=O)O)C1(C)C (centres unmarked) is reported as > 100%.
COc1ccc(NC(=O)COCc2ccccc2)cc1 gave a remaining compound of 0.119%.

Single results of other studies
O=C1CCC(N2Cc3cc(C4CCN(Cc5ccccc5)CC4)ccc3C2=O)C(=O)N1 (centres unmarked) gave an IC50 of 7.99 µM (Voltage-gated inwardly rectifying potassium channel KCNH2 (KCNH2, Homo sapiens, UniProt Q12809); potassium current, inhibitor, manual patch clamp; HEK293 stably transfected with hERG; nominal concentrations).

A few entries again (block 2):
It gave 95.9% for remaining activity (SGK2 (Homo sapiens, UniProt Q9HBY8)).
The remaining activity was 97.7% (CLK1 (Homo sapiens, UniProt P49759)).
